Results from different studies.
Every numbered part comes from another study and shows a few of its results, in no order.

Series 1 — technique: RNA Bind-n-Seq; form: RNA; sample: in vitro; concentration: 365 nM; relative to: no-protein control; reading: higher = stronger binding
Target: RNA binding protein fox-1 homolog 2, RRM domain, GST-SBP tag (RBFOX2, Homo sapiens, UniProt O43251-10, residues 100-194)
Notes: natural RNA segment, single round, ends assumed
Target sequence (chain): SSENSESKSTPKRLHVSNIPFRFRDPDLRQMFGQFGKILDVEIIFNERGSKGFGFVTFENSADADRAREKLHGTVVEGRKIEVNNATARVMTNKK
For `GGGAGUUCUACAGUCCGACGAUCAUUCCUUGGGAUUCUGGUUUGGGGUGGUCAGUGCCCUCUGUGCUUUAUGGACACAAAACCAGAGCACUUGAUGAACUCGGGGUACUAGGGUCAGGGCUUAUAGCAGGAUGUGGAAUUCUCGGGUGCCAA`, “RBNS enrichment (R)” read 0.407.
For `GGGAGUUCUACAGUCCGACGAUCAUAGGUACCCAAGAUAUUGUAUUUGGAGAAGUAGAUCGGUGGCAGGGGAGCAGCGUUUGAUCCCCCCUGCCUAUCAGCUUCUUCUGUGGAGCCUGUUCCUCACUGGAAAUUGGAAUUCUCGGGUGCCAA`, “RBNS enrichment (R)” read 0.325.
Under “RBNS enrichment (R)”, `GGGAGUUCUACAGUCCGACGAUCAUUGUAUUUGAAUUUGUGCCUCUUUGUUUUUCCCCAAACCAAAGCCCUCAAAUUGUAGUCUCUGUCGGCUUCUGCAGAAUUCUGGAAAAUGCCAGUUUUCCUCCCCCGCCUGGAAUUCUCGGGUGCCAA` is recorded as 0.472.
For `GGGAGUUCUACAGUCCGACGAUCUGUCUAAAGUAUGUGAUGUCUUCAUCAUAGUAUGAAGUGUUGAAAAUUAAUAACGAGCCUAGUUUAGGAAAAAGCUGCUUAAAACUGUGGCUCUAAGAGAGUAAUCAUAAUGGAAUUCUCGGGUGCCAA`, “RBNS enrichment (R)” read 0.338.
For `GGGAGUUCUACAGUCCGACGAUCCUAGGCUAAAAUUUCAACUGUUUUAGUCAUAGAUUUUUAGCAUCUUUGUUAGAUCAGCAUAUAAUUCAUAUAACUACUUAAGUUUUUAUGAUGUAUCAUCAAUUUUAUUAUGGAAUUCUCGGGUGCCAA`, “RBNS enrichment (R)” read 0.457.
`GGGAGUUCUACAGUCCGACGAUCAAUAGAAUGCAAAUCAAAGAUAUAACCAGUGUGAUUGAUUGCAAGUAGUCAAGUGUAACUAACUCCUAAGGGCAACCAUUUGUAUCUUAUAUAUCAGAAUUACUUUAUAGUGGAAUUCUCGGGUGCCAA`: “RBNS enrichment (R)” 0.632.
For `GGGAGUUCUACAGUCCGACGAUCAGCUUCCGUGGGACAGAAGCUUUGGGUAGCUCUGAGUGACAGCUGCUUGUAUUCUCGGACCUGGACUCUGACAUGCAGAGAAGAGCUGACCGUCCUGGUGAGGACCACUGUGGAAUUCUCGGGUGCCAA`, “RBNS enrichment (R)” read 0.878.
`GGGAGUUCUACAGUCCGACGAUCAACCAAGCAAGCAAGCAAGAGCAUCCAGUUGUGAUUAGGGUUAAAAUCAUCCAUCCUAAUUAAUGAUUUGGAAAGUUUGACUCUCUUCCUCUCAAGUGUCUUGUGGAGUCUGGAAUUCUCGGGUGCCAA` — result for “RBNS enrichment (R)”: 0.783.
For `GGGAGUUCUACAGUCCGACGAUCACCAUGUGGGGAUGCAGGAAAUCCUGCAGGGGUUGUGUGGGAGGCAGAUAGAUGGUGGUAUGUUGGGUGGAAAGACAAGUUGACCAAGUUCCCUUGUCGAUGCUGAUUCCUGGAAUUCUCGGGUGCCAA`, “RBNS enrichment (R)” read 1.13.
For `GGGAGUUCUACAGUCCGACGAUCGCUGCAUGAACCCACGCACCUGUCCCUGACCUGCUGCUCUGGUCUCCUCACUAGCUCCAAUGUUCCCAUGUUUCCAUUUGUGUGUCUUAUACGUGUAUGUGUGCCCUCUCUGGAAUUCUCGGGUGCCAA`, “RBNS enrichment (R)” read 2.14.
For `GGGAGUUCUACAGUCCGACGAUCCAGGUUGGGUUUGCCAAACGUCUAAUUACCAAGCCAGGAUUUGUGCCAACAAAGCCACAUGGCUGUCCUAGUGAGCUUCCUUUCUUACCUGUCUUGAGCUGGGCGUCUCUUGGAAUUCUCGGGUGCCAA`, “RBNS enrichment (R)” read 0.746.
For `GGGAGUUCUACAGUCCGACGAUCAAGGAGGCCUCGUGGGAUCCUUUAGUGCCAAGCCUGGCGUCCCUGGCCUCAAUUCCGACCUGAGCCCCGGCCACUUUUAGGCCAUCCUCGGACUUGUCGCCCCUUCCCAGUGGAAUUCUCGGGUGCCAA`, “RBNS enrichment (R)” read 0.405.

Series 2 — technique: protein binding microarray; form: double-stranded DNA, one strand shown; sample: in vitro; concentration: not given; relative to: not given; reading: higher = stronger binding
Target: Histone acetyltransferase KAT6A, winged helix 1, GST fusion (KAT6A, Homo sapiens, UniProt Q92794, residues 1-85)
Notes: 8-mer, flanks averaged, mean of 2 arrays, mostly near background
Construct (chain): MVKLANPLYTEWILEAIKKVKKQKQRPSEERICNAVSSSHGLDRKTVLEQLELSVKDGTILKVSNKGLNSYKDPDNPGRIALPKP
`ATCTATGG` gave an E-score of -0.202.
For `CCCCAGAG`, the E-score was -0.173.
`ATGCGTCC` gave an E-score of 0.223.
`CCTGGGCC` has an E-score of 0.0611.
For `ACGTGTAT`, the E-score was -0.181.
The E-score of `ATATATCC` is reported as -0.00899.
The E-score of `GACCGCGA` is reported as 0.332.
For `ACTTCCCA`, the E-score was -0.201.
For `GTTCTGAA`, the E-score was -0.178.
For `AGTATCTC`, the E-score was -0.0491.
With `ACAGGCCT` the E-score was -0.16.
For `CCAGCCAG`, the E-score was -0.186.
For `AATTTGCG`, the E-score was 0.0536.
`CTATGGAC` gave an E-score of 0.0551.
With `TAAGGCCA` the E-score was -0.0285.
`ATGGAACG` has an E-score of -0.00297.
`ACAGCCAC` has an E-score of -0.15.
`CATCTGCC` gave an E-score of 0.0984.
`CCCGGTCA` gave an E-score of 0.228.
`ATAGATAG` gave an E-score of -0.206.
For `GCGGGTAC`, the E-score was 0.313.
With `CGTGGCTA` the E-score was -0.138.
For `AGTGCTTG`, the E-score was -0.0781.
With `CGTGGCTC` the E-score was 0.123.

Series 3 — technique: RNA Bind-n-Seq; form: RNA; sample: in vitro; concentration: 1 µM; notes: whole 134-nt RNA, ends assumed; with: 150 mM KCl; relative to: input library; reading: higher = stronger binding
Target: Ras GTPase-activating protein-binding protein 1, C-terminal RGG region (G3BP1, Homo sapiens, UniProt Q13283)
Chain of UniProt Q13283 (whole entry, looked up): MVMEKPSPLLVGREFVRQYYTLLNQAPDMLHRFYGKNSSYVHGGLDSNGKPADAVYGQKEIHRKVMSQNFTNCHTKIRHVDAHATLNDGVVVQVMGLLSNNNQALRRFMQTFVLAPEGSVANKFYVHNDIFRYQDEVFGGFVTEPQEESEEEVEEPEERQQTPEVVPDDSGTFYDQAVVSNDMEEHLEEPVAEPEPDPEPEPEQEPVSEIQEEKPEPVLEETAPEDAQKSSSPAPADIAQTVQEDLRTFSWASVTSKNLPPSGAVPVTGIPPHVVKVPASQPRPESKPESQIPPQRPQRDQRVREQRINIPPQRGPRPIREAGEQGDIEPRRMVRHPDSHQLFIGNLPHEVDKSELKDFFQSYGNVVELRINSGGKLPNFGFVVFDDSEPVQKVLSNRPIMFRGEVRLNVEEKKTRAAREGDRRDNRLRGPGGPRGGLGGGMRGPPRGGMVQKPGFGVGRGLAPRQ
`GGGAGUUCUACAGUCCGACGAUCUUCACCAGUUUCACUGUGAGCCUCAACGAGCUGGAGACAGGCAUGGAGAAGACCCUGCCACCCACGGACUGCCGCCUGCGCCCUGACAUCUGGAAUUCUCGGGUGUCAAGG` has a log2 enrichment of -0.573.
`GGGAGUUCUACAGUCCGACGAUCCCUGUGCUACACAUCGUAUGUACCGAAUCGGGGAAAAAAGGGGAAAAAAGGGAAAAAAGGGAAAGUAUUAUGUUACGCCGUUCGGAUCUGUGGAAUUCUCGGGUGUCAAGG` gave a log2 enrichment of -1.52.
With `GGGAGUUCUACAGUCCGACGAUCUGGUGGACAGAAGGCACUGCAGCCUGAAAUGGCAGAGUCUGGUGCUGACGAUCCGCGAGAAGAUCAAUGCUGCCAUCCAGGACAUGCCAGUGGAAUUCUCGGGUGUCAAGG` the log2 enrichment was -1.91.
For `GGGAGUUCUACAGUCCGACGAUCCACAGACAACACGCACCCACACAGACACAGAGGGAAGGGGUUGGGAUGGGGCCAGGGUGCACAGCAGGGCGGGGUAGGACCCCAGCCCCUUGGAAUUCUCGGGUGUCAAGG`, the log2 enrichment was -0.381.
`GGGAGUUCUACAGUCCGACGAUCUAACUUUAGAGGAGGAUCUGAUGGAUAUGGCAGUGGACGUGGAUUUGGGUAUGGCUAUAAUGGGUAUGGAGGAGGACCUGGAGGUGGCAAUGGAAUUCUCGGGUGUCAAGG` has a log2 enrichment of -0.702.
`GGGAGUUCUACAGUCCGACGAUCCACAGACAACACGCACCCACACAGACACAGAGGGAAGGGGUUGGGAUGGGGACAAGGUGCACAGCAGGGCGGGGUAGGACCCCAGCCCCUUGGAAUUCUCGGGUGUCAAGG` gave a log2 enrichment of 1.13.
`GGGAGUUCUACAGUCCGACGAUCCUGUGCUACACAUCGUAUGUACCGAAUCGGGGUUUUUUUGGGUUUUUUUGGUUUUUUUGGGAAAGUAUUAUGUUACGCCGUUCGGAUCUGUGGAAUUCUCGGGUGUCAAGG` gave a log2 enrichment of -1.45.
The log2 enrichment of `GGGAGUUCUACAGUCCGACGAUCUAACGUUAGAGGAGGAUCUGAUGGAUAUGGCAGUGGACGUGGAUUUGGGGAUGGCUAUAAUGGGUAUGGAGGAGGACCUGGAGGUGGCAAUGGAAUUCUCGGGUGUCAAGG` is reported as -0.752.
`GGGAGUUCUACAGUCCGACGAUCUCCUGUGCUACACAUCGUAUGUACCGAAUCGGGUUUGGGAAAAAAAGGGAAAAAAAGGGAAAGUAUUAUGUUACGCCGUUCGGAUCUGCAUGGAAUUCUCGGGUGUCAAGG` gave a log2 enrichment of -0.129.
For `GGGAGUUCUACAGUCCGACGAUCUGUGCUACACAUCGUAUGUACCGAAUCGGGGAAAAAGGGGUUUUUUUGGGGUUUUUUUGGGGAAAGUAUUAUGUUACGCCGUUCGGAUCUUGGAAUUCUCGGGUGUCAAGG`, the log2 enrichment was 0.0851.

Series 4 — technique: universal PBM; form: double-stranded DNA, one strand shown; sample: in vitro; concentration: not given; reading: higher = stronger binding
Target: Sal-like protein 4, full length isoform B (SALL4, Homo sapiens, UniProt Q9UJQ4-2, residues 1-616)
Notes: 8-mer, flanks averaged, mean of replicates
With `AGCCATGG` the E-score was -0.173.
The E-score of `CCTGGACC` is reported as -0.236.
`GCAGTTAC` has an E-score of 0.0734.
`ATCTTCCG` gave an E-score of 0.00214.
`CTGCCTGC` gave an E-score of -0.201.
The E-score of `ATCCACCA` is reported as 0.0675.
`ACTCATTC` gave an E-score of 0.18.
With `CTGGGAAA` the E-score was 0.00794.
`CTTTGGTA` has an E-score of -0.00312.
With `ACTACTGC` the E-score was -0.0533.
`AAAACTCG` has an E-score of 0.074.
For `CATCTGGG`, the E-score was -0.143.
`AGATGCGG` has an E-score of -0.122.
`CCTAATGA` gave an E-score of 0.0588.
For `GGTCGCGA`, the E-score was -0.212.
`CAAGCGGC` has an E-score of -0.262.

Repeated from above (series 2):
`CTATGGAC` gave an E-score of 0.0551.
With `TAAGGCCA` the E-score was -0.0285.
`ATGGAACG` has an E-score of -0.00297.
`ACAGCCAC` has an E-score of -0.15.
`CATCTGCC` gave an E-score of 0.0984.
